Experimental data of several laboratories.
Every numbered part comes from another study and shows a few of its results, in no order. Positions count from the first letter of the parent shown.
Chain of UniProt Q86YV6 (whole entry, looked up): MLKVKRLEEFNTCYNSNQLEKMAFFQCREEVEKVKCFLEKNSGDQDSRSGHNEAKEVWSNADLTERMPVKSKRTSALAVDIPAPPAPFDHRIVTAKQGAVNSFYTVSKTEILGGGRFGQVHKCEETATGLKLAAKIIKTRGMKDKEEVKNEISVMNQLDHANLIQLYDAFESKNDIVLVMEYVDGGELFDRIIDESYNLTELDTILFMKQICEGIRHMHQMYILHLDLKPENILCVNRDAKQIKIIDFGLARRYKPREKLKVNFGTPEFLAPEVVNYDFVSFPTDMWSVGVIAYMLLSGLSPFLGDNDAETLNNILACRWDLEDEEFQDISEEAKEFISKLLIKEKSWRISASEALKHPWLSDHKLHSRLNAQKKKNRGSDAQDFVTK
Chain of UniProt P03372 (whole entry, looked up): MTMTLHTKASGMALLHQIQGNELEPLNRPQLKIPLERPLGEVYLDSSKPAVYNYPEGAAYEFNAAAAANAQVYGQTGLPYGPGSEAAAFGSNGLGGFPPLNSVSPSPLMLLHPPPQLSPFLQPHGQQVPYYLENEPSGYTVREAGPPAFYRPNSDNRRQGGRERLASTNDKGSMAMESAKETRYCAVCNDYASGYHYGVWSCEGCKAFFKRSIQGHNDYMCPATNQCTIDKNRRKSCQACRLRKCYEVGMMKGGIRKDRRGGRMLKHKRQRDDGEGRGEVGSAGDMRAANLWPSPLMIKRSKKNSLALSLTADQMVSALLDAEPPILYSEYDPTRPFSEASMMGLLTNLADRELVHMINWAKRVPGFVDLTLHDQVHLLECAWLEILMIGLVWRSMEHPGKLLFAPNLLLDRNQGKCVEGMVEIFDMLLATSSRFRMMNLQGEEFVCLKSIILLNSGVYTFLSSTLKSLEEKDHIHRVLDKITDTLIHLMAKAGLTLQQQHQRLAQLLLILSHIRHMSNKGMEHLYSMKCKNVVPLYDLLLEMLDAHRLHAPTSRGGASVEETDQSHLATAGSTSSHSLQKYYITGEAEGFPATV
Chain of UniProt P06239 (whole entry, looked up): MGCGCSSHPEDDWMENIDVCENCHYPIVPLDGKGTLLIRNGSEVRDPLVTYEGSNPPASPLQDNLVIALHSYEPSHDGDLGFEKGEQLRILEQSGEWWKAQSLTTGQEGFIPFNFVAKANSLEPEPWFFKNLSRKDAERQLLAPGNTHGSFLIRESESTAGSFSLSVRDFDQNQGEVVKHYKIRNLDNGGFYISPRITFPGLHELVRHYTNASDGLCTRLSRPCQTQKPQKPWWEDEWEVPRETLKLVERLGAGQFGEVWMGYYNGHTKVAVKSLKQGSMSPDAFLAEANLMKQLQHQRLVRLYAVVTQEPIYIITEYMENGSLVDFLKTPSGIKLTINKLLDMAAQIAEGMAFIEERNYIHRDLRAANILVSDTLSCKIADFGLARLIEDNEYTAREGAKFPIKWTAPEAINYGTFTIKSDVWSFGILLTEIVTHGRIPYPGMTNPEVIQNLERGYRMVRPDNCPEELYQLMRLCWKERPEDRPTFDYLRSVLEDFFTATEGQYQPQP
Chain of UniProt P21802 (whole entry, looked up): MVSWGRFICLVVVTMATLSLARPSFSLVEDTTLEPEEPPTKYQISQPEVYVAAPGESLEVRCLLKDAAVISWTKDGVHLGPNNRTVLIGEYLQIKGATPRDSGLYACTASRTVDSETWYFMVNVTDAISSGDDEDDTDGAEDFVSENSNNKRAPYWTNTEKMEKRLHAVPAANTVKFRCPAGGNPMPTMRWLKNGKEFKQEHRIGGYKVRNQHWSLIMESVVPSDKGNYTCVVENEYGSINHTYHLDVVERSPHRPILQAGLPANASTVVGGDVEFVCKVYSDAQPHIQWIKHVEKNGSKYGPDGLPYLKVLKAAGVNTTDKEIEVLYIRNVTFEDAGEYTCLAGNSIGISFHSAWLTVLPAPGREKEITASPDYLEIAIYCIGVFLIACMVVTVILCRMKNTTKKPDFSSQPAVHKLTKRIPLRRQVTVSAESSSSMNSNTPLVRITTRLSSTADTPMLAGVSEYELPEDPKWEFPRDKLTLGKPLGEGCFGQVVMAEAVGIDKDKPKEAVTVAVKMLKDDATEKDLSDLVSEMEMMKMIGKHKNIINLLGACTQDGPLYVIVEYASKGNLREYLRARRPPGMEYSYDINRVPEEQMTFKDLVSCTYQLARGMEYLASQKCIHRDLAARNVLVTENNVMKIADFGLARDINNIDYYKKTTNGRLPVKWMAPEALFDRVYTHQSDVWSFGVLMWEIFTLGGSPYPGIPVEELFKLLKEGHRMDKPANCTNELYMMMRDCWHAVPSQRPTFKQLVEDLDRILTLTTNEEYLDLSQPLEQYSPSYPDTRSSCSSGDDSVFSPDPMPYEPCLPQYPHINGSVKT
Chain of UniProt Q16539 (whole entry, looked up): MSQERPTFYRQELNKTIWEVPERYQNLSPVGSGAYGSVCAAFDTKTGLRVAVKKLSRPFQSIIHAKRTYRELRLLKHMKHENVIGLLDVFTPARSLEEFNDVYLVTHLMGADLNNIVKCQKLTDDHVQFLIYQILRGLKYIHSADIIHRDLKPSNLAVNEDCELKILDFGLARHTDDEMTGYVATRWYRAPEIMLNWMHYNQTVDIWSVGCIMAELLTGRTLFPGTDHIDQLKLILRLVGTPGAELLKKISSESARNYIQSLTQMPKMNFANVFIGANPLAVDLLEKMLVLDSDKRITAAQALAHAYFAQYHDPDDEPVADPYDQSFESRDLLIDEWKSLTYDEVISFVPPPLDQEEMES
Chain of UniProt Q86UX6 (whole entry, looked up): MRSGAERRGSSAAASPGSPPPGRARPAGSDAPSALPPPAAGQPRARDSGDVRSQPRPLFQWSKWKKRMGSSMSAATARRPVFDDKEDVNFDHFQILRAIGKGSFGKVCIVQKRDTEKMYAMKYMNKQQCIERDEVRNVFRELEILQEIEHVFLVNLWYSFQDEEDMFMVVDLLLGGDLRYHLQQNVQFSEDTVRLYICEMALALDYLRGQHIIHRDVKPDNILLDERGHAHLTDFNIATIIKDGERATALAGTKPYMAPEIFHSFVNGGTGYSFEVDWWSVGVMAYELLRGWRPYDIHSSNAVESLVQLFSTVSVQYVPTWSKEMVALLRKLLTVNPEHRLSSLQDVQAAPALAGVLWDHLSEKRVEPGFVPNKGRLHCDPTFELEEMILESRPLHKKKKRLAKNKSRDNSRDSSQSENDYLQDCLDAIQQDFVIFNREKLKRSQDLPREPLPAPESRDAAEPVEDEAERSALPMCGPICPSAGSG
Chain of UniProt Q9BZL6 (whole entry, looked up): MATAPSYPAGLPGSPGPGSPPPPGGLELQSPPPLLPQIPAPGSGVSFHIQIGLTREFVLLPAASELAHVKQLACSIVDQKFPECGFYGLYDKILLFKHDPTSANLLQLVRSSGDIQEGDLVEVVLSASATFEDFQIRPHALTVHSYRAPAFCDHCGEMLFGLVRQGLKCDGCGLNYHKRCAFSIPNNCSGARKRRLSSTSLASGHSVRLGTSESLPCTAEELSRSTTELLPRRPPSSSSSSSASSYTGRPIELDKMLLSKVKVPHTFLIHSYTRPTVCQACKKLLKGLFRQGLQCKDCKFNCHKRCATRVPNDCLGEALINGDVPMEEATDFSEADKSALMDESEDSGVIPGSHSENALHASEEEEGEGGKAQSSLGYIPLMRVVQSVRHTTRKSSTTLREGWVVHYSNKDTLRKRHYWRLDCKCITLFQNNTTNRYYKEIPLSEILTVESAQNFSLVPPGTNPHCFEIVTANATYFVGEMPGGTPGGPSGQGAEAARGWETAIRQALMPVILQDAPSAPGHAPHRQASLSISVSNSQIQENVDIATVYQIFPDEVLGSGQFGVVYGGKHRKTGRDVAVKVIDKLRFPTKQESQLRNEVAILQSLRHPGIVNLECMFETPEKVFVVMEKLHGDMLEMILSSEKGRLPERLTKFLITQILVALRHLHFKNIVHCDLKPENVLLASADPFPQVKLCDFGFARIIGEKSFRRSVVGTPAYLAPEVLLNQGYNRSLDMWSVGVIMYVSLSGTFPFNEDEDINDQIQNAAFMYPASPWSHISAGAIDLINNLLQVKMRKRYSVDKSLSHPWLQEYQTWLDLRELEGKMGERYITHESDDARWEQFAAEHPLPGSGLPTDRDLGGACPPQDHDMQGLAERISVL
Chain of UniProt P46734 (whole entry, looked up): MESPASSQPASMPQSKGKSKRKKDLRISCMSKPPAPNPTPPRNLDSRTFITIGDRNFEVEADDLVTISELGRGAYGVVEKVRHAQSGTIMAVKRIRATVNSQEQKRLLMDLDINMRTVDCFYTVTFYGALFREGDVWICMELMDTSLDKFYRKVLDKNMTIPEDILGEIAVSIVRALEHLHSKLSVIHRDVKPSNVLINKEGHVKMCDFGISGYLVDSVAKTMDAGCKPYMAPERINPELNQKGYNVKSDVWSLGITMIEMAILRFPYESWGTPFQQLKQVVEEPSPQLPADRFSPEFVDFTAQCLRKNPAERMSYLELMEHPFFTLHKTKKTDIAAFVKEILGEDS

Sample 1 — target: vanadate, free oxyanion; technique: microfluidic competitive inhibition; matrix: in vitro, cell-free expressed; tested at: not given; direction: lower = stronger binding
Notes: derived from inhibition constants, unchanged parent 676 nM
Starting sequence: PafA, mature enzyme, eGFP fusion (Elizabethkingia meningoseptica, UniProt Q9KJX5); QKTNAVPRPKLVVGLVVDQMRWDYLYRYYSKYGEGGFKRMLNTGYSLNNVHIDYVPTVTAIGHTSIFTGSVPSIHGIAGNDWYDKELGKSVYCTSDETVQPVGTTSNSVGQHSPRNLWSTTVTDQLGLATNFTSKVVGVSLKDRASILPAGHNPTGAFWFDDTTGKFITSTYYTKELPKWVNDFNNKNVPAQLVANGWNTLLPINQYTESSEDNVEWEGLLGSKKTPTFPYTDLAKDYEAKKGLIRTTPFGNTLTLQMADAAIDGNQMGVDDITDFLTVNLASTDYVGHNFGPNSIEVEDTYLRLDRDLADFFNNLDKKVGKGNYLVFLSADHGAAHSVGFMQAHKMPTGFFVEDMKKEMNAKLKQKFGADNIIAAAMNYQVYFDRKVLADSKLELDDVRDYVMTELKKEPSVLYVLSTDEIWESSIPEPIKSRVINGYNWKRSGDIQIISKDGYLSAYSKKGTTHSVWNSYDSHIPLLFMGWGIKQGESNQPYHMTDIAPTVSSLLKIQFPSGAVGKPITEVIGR
Change | oxyanion analog dissociation constant
T68G | 284 nM
V399G | 562 nM
D401G | 800 nM
R8V | 652 nM
A370V | 688 nM
L456V | 1.09 µM
S425G | 603 nM
S474V | 929 nM
G463V | 632 nM
T253G | 624 nM
E395V | 629 nM
K85G | 793 nM
F160V | 510 nM
I66V | 630 nM
G292A | 606 nM
K242G | 497 nM
A235V | 721 nM
G197V | 671 nM
G76A | 778 nM
F328V | 1.58 µM
A335V | 984 nM
D308G | 571 nM
V71G | 678 nM
N214V | 621 nM
S106G | 1.03 µM

Sample 2 — technique: RNA Bind-n-Seq; molecule type: RNA; matrix: in vitro; tested at: 1 µM; notes: whole 134-nt RNA, ends assumed; together with: 150 mM KCl; reference: input library; direction: higher = stronger binding
Target: Ras GTPase-activating protein-binding protein 1, RRM domain (G3BP1, Homo sapiens, UniProt Q13283)
Chain of UniProt Q13283 (whole entry, looked up): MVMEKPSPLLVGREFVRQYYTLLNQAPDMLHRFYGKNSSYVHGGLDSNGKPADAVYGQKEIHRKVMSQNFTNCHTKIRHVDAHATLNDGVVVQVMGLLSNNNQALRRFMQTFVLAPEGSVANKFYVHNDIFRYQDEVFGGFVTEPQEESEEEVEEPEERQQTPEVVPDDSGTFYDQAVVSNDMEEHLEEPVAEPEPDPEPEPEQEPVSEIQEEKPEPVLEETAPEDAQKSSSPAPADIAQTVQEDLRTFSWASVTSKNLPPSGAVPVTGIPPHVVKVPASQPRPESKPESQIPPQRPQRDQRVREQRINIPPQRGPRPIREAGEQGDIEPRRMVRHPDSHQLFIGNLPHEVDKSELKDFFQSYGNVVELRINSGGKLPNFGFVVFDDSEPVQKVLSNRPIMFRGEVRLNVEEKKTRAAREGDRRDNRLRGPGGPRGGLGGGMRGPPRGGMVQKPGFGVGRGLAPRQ
Constant ends, left off below: GGGAGUUCUACAGUCCGACGAUC … UGGAAUUCUCGGGUGUCAAGG
Sequence | log2 enrichment
AGUCCUGUGCUACACAUCGUAUGUACCGAAUCAAACCCAAAUUUUUUUAAACCCAAAAAAGUAUUAUGUUACGCCGUUCGGAUCUGCACU | -0.866
AGUCCUGUGCUACACAUCGUAUGUACCGAAUCGGAAAAAAAGGAAAGGAAAAAAAGGAAAGUAUUAUGUUACGCCGUUCGGAUCUGCACU | 0.0436
UCAAGUCCUGUGCUACACAUCGUAUGUACCGAAUCGGCCGGGGCCGGGGCCGGGGAAAGUAUUAUGUUACGCCGUUCGGAUCUGCACUUC | -1.76
ACCAUGCAGGUGGGCAUCUUUGGGAAGUGGGGCAAGGGGGGGAUGGGGAGGGGGGUAACACUUUGGGAACAGGUGGUCCCAGGUCGUUUC | 0.942
GUCCUGUGCUACACAUCGUAUGUACCGAAUCGGGGAAAAAGGGGUGGGGAAAAAGGGGAAAGUAUUAUGUUACGCCGUUCGGAUCUGCAC | 0.846
UUGCGAAAAGGACCAAUUCCAGUGCCGGAACGAGCGCUGCAUCCCCUCUGUGUGGAGAUGCGACGAGGACGAUGACUGCUUAGACCACAG | -0.0615
CACAGACAACACGCACCCACACAGACACAGAGGGAAGGGGUUGGGAUGGGGACAGGGUGCACAGCAGGGCGGGGUAGGACCCCAGAAACU | -0.209
GCAGGAAGUAAAAACAAAUGGAAAUGCUUCGGAUAGUGGCAGGGGUGGGGGUUGCUAAGGAAAGGGUGGGAUGGGAGUGGGUAAAGAAUU | 0.718

Sample 3 — read-out: cell-free assay; technique: competition with immobilised ligand; tested at: 1 µM
SMILES: N#CC1(c2ccccn2)CCN(Cc2cc(C(=O)O)c(=O)n3ccccc23)CC1
target | remaining binding [%]
Dual specificity mitogen-activated protein kinase kinase 3 (MAP2K3, Homo sapiens, UniProt P46734) | 73
Myosin light chain kinase family member 4 (MYLK4, Homo sapiens, UniProt Q86YV6) | 100
cAMP-dependent protein kinase catalytic subunit alpha (PRKACA, Homo sapiens, UniProt P17612) | 88
Serine/threonine-protein kinase 32C (STK32C, Homo sapiens, UniProt Q86UX6) | 72
Cyclin-dependent kinase-like 3 (CDKL3, Homo sapiens, UniProt Q8IVW4) | 89
Serine/threonine-protein kinase D2 (PRKD2, Homo sapiens, UniProt Q9BZL6) | 99
Tyrosine-protein kinase ABL1, non-phosphorylated (ABL1, Homo sapiens, UniProt P00519) | 98
Tyrosine-protein kinase ABL1, non-phosphorylated (ABL1, Homo sapiens, UniProt P00519, H396P) | 80
Mast/stem cell growth factor receptor Kit (KIT, Homo sapiens, UniProt P10721, V559D) | 100

Sample 4
SMILES: CNC(=O)c1ccc(-c2cnn3ccc(C(=O)N(C)c4ccc(Cl)c(C(=O)O)c4)cc23)cc1
target | assay | IC50 [µM]
Mitogen-activated protein kinase 14 (MAPK14, Homo sapiens, UniProt Q16539) | enzyme activity, inhibitor | > 30
MAP kinase-activated protein kinase 2 (MAPKAPK2, Homo sapiens, UniProt P49137) | enzyme activity, inhibitor | > 30
Tyrosine-protein kinase Lck (LCK, Homo sapiens, UniProt P06239) | enzyme activity, inhibitor | > 30
Prothrombin (F2, Homo sapiens, UniProt P00734) | cell-free assay | > 30
Sodium-dependent noradrenaline transporter (SLC6A2, Homo sapiens, UniProt P23975) | cell-free assay | > 30
Fibroblast growth factor receptor 2 (FGFR2, Homo sapiens, UniProt P21802) | enzyme activity, inhibitor | > 30
Estrogen receptor (ESR1, Homo sapiens, UniProt P03372) | cell-free assay | > 30

Sample 5 — target: BATF2, bZIP domain (human); technique: DHFR protein complementation; matrix: yeast; reference: wild-type JUN-FOS pair; direction: higher = stronger binding
Notes: single substitutions, most at no-binding floor
Starting sequence: JUN, bZIP domain (human); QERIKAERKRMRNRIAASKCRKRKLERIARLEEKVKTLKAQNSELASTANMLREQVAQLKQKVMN; partner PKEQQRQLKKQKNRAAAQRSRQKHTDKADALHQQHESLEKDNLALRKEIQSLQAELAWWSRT
Change | binding fitness
L38I | -0.956 natural log
V56D | -1.17 natural log
K39F | -0.991 natural log
V56L | -0.198 natural log
L45G | -1.41 natural log
Q41S | -1.32 natural log
T48R | -0.168 natural log
R30Y | -0.238 natural log
